Measured values gathered from unrelated publications.
Numbered parts are unrelated; each lists some results of a single study.
Chain of UniProt Q13153 (whole entry, looked up): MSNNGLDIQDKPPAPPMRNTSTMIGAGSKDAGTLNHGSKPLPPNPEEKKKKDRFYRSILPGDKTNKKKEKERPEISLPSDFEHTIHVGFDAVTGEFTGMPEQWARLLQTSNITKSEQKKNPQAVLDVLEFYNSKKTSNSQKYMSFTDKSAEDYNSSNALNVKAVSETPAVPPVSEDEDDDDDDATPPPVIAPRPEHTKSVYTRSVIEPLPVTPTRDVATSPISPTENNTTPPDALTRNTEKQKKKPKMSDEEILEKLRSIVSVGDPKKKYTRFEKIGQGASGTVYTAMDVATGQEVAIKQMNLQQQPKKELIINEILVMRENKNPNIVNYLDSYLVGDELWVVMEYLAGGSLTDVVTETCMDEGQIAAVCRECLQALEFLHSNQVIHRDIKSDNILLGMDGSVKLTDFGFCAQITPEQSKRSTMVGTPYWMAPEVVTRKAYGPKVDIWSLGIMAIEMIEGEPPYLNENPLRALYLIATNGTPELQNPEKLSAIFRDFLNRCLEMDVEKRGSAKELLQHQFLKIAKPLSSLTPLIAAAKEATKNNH
Chain of UniProt Q05513 (whole entry, looked up): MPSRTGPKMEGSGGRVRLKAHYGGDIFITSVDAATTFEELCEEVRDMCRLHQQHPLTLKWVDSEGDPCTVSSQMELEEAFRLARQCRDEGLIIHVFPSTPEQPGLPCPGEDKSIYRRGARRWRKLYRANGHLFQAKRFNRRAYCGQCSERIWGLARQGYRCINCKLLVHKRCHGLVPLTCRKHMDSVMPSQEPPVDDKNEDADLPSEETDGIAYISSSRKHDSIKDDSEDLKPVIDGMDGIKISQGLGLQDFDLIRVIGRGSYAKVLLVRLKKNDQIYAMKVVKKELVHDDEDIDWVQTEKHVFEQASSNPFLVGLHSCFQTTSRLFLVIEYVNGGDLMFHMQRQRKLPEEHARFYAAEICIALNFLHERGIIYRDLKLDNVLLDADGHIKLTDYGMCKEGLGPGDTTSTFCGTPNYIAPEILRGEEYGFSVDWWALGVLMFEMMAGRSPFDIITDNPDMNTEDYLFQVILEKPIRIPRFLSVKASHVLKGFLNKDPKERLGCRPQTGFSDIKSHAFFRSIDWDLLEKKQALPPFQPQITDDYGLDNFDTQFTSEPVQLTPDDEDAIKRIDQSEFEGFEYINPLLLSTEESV
Chain of UniProt Q9NRH2 (whole entry, looked up): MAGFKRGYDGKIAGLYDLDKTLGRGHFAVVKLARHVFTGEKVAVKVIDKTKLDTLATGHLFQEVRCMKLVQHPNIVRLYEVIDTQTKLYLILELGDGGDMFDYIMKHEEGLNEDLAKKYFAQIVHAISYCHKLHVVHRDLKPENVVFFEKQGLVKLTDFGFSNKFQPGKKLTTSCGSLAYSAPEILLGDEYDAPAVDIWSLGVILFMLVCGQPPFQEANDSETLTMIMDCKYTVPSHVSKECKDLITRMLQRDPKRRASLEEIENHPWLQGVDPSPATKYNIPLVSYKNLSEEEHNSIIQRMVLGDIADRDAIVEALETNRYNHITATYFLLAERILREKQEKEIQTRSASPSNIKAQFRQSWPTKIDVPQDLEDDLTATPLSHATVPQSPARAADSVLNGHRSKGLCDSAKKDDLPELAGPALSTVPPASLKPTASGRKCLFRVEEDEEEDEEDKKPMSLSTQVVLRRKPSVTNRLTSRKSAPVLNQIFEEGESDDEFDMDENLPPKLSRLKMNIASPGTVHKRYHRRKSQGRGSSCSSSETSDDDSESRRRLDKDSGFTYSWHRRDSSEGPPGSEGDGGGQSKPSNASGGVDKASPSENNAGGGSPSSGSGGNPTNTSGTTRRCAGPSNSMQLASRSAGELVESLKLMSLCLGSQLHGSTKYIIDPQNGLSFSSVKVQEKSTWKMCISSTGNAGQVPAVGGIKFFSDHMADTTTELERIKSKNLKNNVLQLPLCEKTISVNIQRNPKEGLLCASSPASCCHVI
Chain of UniProt Q06418 (whole entry, looked up): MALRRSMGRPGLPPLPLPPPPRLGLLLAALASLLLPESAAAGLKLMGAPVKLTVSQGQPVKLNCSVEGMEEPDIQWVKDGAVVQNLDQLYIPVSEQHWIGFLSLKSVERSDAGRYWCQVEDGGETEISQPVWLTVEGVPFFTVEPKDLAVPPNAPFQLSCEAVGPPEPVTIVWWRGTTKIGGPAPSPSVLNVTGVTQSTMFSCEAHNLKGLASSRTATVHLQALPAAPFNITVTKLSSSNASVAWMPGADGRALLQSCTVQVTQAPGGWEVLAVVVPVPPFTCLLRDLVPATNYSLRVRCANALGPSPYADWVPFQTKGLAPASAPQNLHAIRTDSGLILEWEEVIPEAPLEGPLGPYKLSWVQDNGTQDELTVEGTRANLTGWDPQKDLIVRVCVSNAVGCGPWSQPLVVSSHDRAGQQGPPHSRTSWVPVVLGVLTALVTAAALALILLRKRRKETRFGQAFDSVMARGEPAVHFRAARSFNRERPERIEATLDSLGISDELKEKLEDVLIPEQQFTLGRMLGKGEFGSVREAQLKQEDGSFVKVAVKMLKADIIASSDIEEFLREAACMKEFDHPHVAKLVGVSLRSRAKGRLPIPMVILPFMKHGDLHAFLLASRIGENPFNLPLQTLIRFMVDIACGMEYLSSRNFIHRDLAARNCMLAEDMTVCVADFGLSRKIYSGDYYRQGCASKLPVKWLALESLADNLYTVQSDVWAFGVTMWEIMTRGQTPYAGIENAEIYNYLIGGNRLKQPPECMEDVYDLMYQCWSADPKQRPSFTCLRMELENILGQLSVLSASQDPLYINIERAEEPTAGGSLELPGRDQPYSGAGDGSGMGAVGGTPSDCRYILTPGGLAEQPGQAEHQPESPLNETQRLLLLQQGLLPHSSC
Chain of UniProt Q9HBY8 (whole entry, looked up): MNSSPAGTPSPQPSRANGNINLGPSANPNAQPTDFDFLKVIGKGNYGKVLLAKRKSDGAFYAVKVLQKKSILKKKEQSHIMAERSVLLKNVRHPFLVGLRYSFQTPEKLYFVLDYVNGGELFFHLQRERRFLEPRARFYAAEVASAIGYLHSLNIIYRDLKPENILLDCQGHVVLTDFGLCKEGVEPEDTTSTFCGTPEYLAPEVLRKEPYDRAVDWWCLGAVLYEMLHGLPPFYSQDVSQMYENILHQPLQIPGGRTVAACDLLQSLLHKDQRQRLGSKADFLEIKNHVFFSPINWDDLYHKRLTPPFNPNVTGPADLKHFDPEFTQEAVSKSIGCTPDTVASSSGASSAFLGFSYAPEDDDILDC
Chain of UniProt P49674 (whole entry, looked up): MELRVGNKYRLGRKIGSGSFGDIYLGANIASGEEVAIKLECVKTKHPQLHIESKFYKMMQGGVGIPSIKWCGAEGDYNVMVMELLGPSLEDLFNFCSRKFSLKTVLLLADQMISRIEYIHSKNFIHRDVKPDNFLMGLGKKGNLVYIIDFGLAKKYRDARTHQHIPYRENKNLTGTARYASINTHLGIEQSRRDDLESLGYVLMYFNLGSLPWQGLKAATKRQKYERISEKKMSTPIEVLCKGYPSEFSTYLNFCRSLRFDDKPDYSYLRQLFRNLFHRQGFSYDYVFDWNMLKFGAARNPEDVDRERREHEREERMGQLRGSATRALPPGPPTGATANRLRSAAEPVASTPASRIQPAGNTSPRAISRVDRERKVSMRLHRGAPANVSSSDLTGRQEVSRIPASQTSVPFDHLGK
Chain of UniProt Q04759 (whole entry, looked up): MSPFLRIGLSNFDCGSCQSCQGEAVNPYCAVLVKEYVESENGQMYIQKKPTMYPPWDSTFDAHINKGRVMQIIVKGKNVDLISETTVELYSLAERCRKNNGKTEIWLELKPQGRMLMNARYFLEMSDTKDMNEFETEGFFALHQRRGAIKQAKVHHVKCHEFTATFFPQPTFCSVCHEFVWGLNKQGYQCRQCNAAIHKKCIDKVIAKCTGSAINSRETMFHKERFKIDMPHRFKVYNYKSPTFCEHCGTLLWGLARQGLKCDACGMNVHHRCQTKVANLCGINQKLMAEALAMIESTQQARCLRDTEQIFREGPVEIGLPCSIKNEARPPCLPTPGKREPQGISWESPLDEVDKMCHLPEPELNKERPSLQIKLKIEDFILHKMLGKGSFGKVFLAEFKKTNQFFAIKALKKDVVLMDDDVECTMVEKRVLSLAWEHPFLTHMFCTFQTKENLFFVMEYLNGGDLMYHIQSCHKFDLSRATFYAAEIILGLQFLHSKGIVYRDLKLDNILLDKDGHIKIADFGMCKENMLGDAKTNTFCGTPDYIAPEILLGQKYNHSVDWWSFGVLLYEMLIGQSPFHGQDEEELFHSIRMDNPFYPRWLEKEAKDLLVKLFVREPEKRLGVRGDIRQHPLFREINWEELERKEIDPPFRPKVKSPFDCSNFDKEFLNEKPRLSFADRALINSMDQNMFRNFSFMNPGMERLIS
Chain of UniProt P51812 (whole entry, looked up): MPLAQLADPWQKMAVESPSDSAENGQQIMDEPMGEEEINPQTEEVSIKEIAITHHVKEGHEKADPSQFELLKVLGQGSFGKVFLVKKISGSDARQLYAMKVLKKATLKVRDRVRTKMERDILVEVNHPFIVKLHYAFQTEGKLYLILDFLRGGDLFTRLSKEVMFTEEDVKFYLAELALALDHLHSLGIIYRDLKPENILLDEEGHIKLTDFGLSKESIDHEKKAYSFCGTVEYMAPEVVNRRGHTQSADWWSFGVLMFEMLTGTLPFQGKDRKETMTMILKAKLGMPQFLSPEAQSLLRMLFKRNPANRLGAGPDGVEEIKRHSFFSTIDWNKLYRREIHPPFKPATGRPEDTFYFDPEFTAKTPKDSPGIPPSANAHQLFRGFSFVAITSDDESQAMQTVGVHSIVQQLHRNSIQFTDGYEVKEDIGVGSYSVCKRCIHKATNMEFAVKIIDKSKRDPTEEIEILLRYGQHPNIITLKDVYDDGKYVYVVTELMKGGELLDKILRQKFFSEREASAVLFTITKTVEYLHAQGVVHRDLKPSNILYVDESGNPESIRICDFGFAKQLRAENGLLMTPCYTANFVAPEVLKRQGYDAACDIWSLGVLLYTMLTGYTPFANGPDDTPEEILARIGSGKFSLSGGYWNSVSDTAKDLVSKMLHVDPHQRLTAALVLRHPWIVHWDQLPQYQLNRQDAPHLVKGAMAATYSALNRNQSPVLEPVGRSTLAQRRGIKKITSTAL

Study 1
Species: human
Sample: microsomes or S9
Concentration: 2 µM
Time: 0.5 h
SMILES | remaining compound
CCN1CCN(CCCNC(=O)c2oc3ccc4c(c3c2C)C(O)CC(C)(C)O4)CC1 (centres unmarked) | > 99.9%
CCNC(=O)N1c2ccc(CC)cc2C(C)=CC1(C)C | 0.417%
COc1ccc(-c2cc3cc(C)cc(C)c3o2)cc1OC | > 99%
CCC[C@H](CCO)n1c(C#N)cc(Cl)c1Br | 48.6%
Cc1nc2sc(C(=O)N(C)c3ccccc3)c(N)c2c(C)c1C | 1.45%
CCN1CCCCC1CNc1nccc(-c2ccc(C)nc2C)n1 (centres unmarked) | 102%
Cc1ccc(-c2n[nH]c3c2C(c2cccnc2)N(c2ccc(Cl)cc2)C3=O)cc1 (centres unmarked) | 28.4%
COc1cc(OC)c2c(c1)C(=O)NN1C(=O)OC(C)(C)C21C (centres unmarked) | 46.3%
N#Cc1cnc(N[C@H]2CC[C@H](Nc3cnc(C#N)cn3)CC2)cn1 | > 99.9%
Fc1ccc(CNc2c(-c3ccccn3)nc3cnccn23)cc1 | 0.00891%
O=C(c1ccc(OC(c2ccc(Cl)cc2)c2ccccc2Cl)c(F)c1)N1CC(O)C(O)C1 (centres unmarked) | 69.3%

Study 2
Sample: hydrocarbon/water
SMILES | logD
CCC[C@@H]1NC(=O)[C@H](C)N(C)C(=O)[C@H](CC(C)C)NC(=O)Cn2cc(nn2)CN(C)C(=O)[C@H](CC(C)C)NC(=O)[C@H](C)N(C)C(=O)[C@H](CC2CCCCC2)NC(=O)[C@H](CCC)N(C)C(=O)[C@H]2CCCN2C1=O | 1.21
CCC[C@H]1C(=O)N[C@@H](CC2CCCCC2)C(=O)N(C)[C@@H](C)C(=O)N[C@@H](CC(C)C)C(=O)N(C)Cc2cn(nn2)CC(=O)N[C@@H](CC(C)C)C(=O)N(C)[C@@H](C)C(=O)N[C@@H](C2CCCCC2)C(=O)N2CCC[C@@H]2C(=O)N1C | 1.95
CC(C)C[C@@H]1NC(=O)[C@H](C)N(C)C(=O)[C@H](CC2CCCCC2)NC(=O)[C@H](CC(C)C)N(C)C(=O)[C@H]2CCCN2C(=O)[C@H](CC(C)C)NC(=O)[C@H](C)N(C)C(=O)[C@H](CC(C)C)NC(=O)Cn2cc(nn2)CN(C)C1=O | 1.96
CCC[C@@H]1NC(=O)[C@H](C)N(C)C(=O)[C@H](CC(C)C)NC(=O)Cn2cc(nn2)CN(C)C(=O)[C@H](CC(C)C)NC(=O)[C@H](C)N(C)C(=O)[C@H](CC(C)C)NC(=O)[C@H](CCC)N(C)C(=O)[C@H]2CCCN2C1=O | 0.14
CCC[C@H]1C(=O)N[C@@H](CC(C)C)C(=O)N(C)[C@@H](C)C(=O)N[C@@H](CC(C)C)C(=O)N(C)Cc2cn(nn2)CC(=O)N[C@@H](CC(C)C)C(=O)N(C)[C@@H](C)C(=O)N[C@@H](CC(C)C)C(=O)N2CCC[C@@H]2C(=O)N1C | 0.624
CCN1CC(=O)NC(CC(C)C)C(=O)N(C)C(C)C(=O)NC(CC(C)C)C(=O)N2CCCC2C(=O)N(CC2CCOCC2)CC(=O)NC(CC(C)C)C(=O)N(C)C(C)C(=O)NC(Cc2ccccc2)C(=O)N2CCCC2C1=O (centres unmarked) | 1.78
CC(C)CC1NC(=O)CN(CC2CCCCC2)C(=O)C2CCCN2C(=O)C(CC(C)C)NC(=O)C(C)N(C)C(=O)C(CC(C)C)NC(=O)CN(Cc2ccc3c(c2)OCO3)C(=O)C2CCCN2C(=O)C(C)NC(=O)C(C)N(C)C1=O (centres unmarked) | 3.11
CCN1CC(=O)NC(CC(C)C)C(=O)N(C)C(C)C(=O)NC(CC(C)C)C(=O)N2CCCC2C(=O)N(CC2CCCCC2)CC(=O)NC(CC(C)C)C(=O)N(C)C(C)C(=O)NC(Cc2ccccc2)C(=O)N2CCCC2C1=O (centres unmarked) | 3.17
CCC[C@@H]1NC(=O)CSC[C@@H](C(=O)OCC)N(C)C(=O)[C@H](CC(C)C)NC(=O)[C@H](C)N(C)C(=O)[C@H](CC(C)C)NC(=O)[C@H](C)N(C)C(=O)[C@@H]2CCCN2C(=O)[C@H](CC(C)C)NC(=O)CN(C)C1=O | 0.381
CC(C)C[C@@H]1NC(=O)[C@H](C)N(C)C(=O)[C@H](CC2CCCCC2)NC(=O)CN(CC(C)C)C(=O)[C@H]2CCCN2C(=O)[C@H](CC2CCCCC2)NC(=O)[C@H](C)N(C)C(=O)[C@H](C2CCCCC2)NC(=O)Cn2cc(nn2)CN(C)C1=O | 2.8
CCC[C@@H]1C(=O)N(C)[C@@H](C)C(=O)N[C@@H](CC(C)C)C(=O)N2CCC[C@@H]2C(=O)N(C)[C@@H](C)C(=O)N[C@@H](CC(C)C)C(=O)N1C | 0.499
CCCCCN1CC(=O)NC(CC(C)C)C(=O)N(C)C(C)C(=O)NC(C)C(=O)N2CCCC2C(=O)N(CC)CC(=O)NC(CC(C)C)C(=O)N(C)C(C)C(=O)NC(CC(C)C)C(=O)N2CCCC2C1=O (centres unmarked) | 1.93

Study 3
SMILES: NS(=O)(=O)c1cc(NC(=O)C2(c3ccccc3Cl)CC2)ccc1Oc1cccc(Cl)c1
Method: competition with immobilised ligand
Concentration: 1 µM
target | effect on | remaining binding [%]
SGK3 (Homo sapiens, UniProt Q96BR1) | cell-free assay | 90
PRKCD (Homo sapiens, UniProt Q05655) | cell-free assay | 89
RAF1 (Homo sapiens, UniProt P04049) | cell-free assay | 81
FGFR2 (Homo sapiens, UniProt P21802) | cell-free assay | 100
EPHA5 (Homo sapiens, UniProt P54756) | cell-free assay | 79
BMX (Homo sapiens, UniProt P51813) | cell-free assay | 87
PAK2 (Homo sapiens, UniProt Q13177) | cell-free assay | 100
BRSK1 (Homo sapiens, UniProt Q8TDC3) | cell-free assay | 82
CILK1 (Homo sapiens, UniProt Q9UPZ9) | binding | 100
STK4 (Homo sapiens, UniProt Q13043) | cell-free assay | 73
DCLK3 (Homo sapiens, UniProt Q9C098) | cell-free assay | 56
Tyrosine-protein kinase ABL1, phosphorylated (ABL1, Homo sapiens, UniProt P00519, Q252H) | cell-free assay | 71
ROCK1 (Homo sapiens, UniProt Q13464) | cell-free assay | 100
DYRK1A (Homo sapiens, UniProt Q13627) | cell-free assay | 90
Tyrosine-protein kinase ABL1, phosphorylated (ABL1, Homo sapiens, UniProt P00519, M351T) | cell-free assay | 70
NLK (Homo sapiens, UniProt Q9UBE8) | cell-free assay | 68
NEK10 (Homo sapiens, UniProt Q6ZWH5) | cell-free assay | 89
CLK4 (Homo sapiens, UniProt Q9HAZ1) | cell-free assay | 100
SNRK (Homo sapiens, UniProt Q9NRH2) | cell-free assay | 100
Ribosomal protein S6 kinase alpha-4, C-terminal kinase domain (RPS6KA4, Homo sapiens, UniProt O75676) | cell-free assay | 89
CSNK1A1 (Homo sapiens, UniProt P48729) | cell-free assay | 100
Tyrosine-protein kinase ABL1, non-phosphorylated (ABL1, Homo sapiens, UniProt P00519) | cell-free assay | 64
TNK1 (Homo sapiens, UniProt Q13470) | cell-free assay | 100
RIPK1 (Homo sapiens, UniProt Q13546) | cell-free assay | 93
SRMS (Homo sapiens, UniProt Q9H3Y6) | cell-free assay | 77

Study 4
SMILES: O=C1C(Cl)=C(N2C(=O)CCC2=O)C(=O)c2ccccc21
Effect on: enzyme activity
Action: inhibitor
Concentration: 0.5 µM
Relative to: control
target | remaining activity
TEC (Homo sapiens, UniProt P42680) | 101%
CAMKK1 (Homo sapiens, UniProt Q8N5S9) | 112%
CSNK1D (Homo sapiens, UniProt P48730) | 99.4%
SIK2 (Homo sapiens, UniProt Q9H0K1) | 92.8%
PAK6 (Homo sapiens, UniProt Q9NQU5) | 89.6%
FLT1 (Homo sapiens, UniProt P17948) | 87.8%
CLK2 (Homo sapiens, UniProt P49760) | 90.7%
JAK1 (Homo sapiens, UniProt P23458) | 107%
PAK1 (Homo sapiens, UniProt Q13153) | 96.3%
TYRO3 (Homo sapiens, UniProt Q06418) | 114%
Cyclin-dependent kinase 2, with cyclin E (CDK2, Homo sapiens, UniProt P24941) | 90.3%
SRPK1 (Homo sapiens, UniProt Q96SB4) | 103%
CSNK1E (Homo sapiens, UniProt P49674) | 102%
RPS6KA3 (Homo sapiens, UniProt P51812) | 101%
PRKCZ (Homo sapiens, UniProt Q05513) | 114%
EPHA2 (Homo sapiens, UniProt P29317) | 107%
IGF1R (Homo sapiens, UniProt P08069) | 107%
MAP3K20 (Homo sapiens, UniProt Q9NYL2) | 97.9%
CLK1 (Homo sapiens, UniProt P49759) | 103%
CAMK1 (Homo sapiens, UniProt Q14012) | 98.3%
SGK2 (Homo sapiens, UniProt Q9HBY8) | 99.5%
EPHA6 (Homo sapiens, UniProt Q9UF33) | 89.5%
PRKCQ (Homo sapiens, UniProt Q04759) | 114%

Repeated from above (study 3):
target | effect on | remaining binding [%]
ROCK1 (Homo sapiens, UniProt Q13464) | cell-free assay | 100
Tyrosine-protein kinase ABL1, phosphorylated (ABL1, Homo sapiens, UniProt P00519, Q252H) | cell-free assay | 71
NLK (Homo sapiens, UniProt Q9UBE8) | cell-free assay | 68
RAF1 (Homo sapiens, UniProt P04049) | cell-free assay | 81
CLK4 (Homo sapiens, UniProt Q9HAZ1) | cell-free assay | 100
NEK10 (Homo sapiens, UniProt Q6ZWH5) | cell-free assay | 89
Tyrosine-protein kinase ABL1, phosphorylated (ABL1, Homo sapiens, UniProt P00519, M351T) | cell-free assay | 70
RIPK1 (Homo sapiens, UniProt Q13546) | cell-free assay | 93
TNK1 (Homo sapiens, UniProt Q13470) | cell-free assay | 100
